# Results of several laboratories.
# Every numbered part comes from another study and shows a few of its results, in no order.

# Set 1
# Target: RNA binding protein fox-1 homolog 2, RRM domain, GST-SBP tag (RBFOX2, Homo sapiens, UniProt O43251-10, residues 100-194)
# Method: RNA Bind-n-Seq
# Molecule type: RNA
# Sample: in vitro
# Concentration: 365 nM
# Setting: natural RNA segment, single round, ends assumed
# Relative to: no-protein control
# Reading: higher = stronger binding
# Target sequence (chain): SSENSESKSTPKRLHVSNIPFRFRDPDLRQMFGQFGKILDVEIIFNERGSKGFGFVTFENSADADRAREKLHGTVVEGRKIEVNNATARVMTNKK
Strand,RBNS enrichment (R)
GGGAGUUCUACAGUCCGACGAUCAAAUAACUUGUAUAGAUUUUGGUUACCUACCCUUAAGUUCCCUCCCGUAGAUUAGCCUUUAGAAGUCAGUGUGGUGGCCGGCAGUGAAGUUUUCUUCACUAACAUUUAUUUGGAAUUCUCGGGUGCCAA,0.52
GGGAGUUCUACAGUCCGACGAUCUGCCAAACUUGGUGUGGCCAGGAAAGGGCAGUCCUGAGGGAGAAGACAGGAUUCAGGGCAGUGCUCCGAAGCUGUGUGCUCACCUGGUUGGCUCAUCAAACCUGGCAACCUGGAAUUCUCGGGUGCCAA,0.264
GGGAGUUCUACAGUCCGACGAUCUCACGAAGUAGGUUUCCUCUGGCUCCCUACAGAGCAAUAUUCCAAAGGAACAUUUUAACUGUAAAGGCUAGAGACAAGAAGACAAAAGAGUAGAUCAUUUUAAUAAGAAUUGGAAUUCUCGGGUGCCAA,0.312
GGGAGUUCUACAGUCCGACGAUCUCGAAGUGCCCAGAUUUGACUCCUAAGUUCUAGGAGACUGUAGCGCAGGGUCUGUCAACCUUAGCACUAUUGGCAUUUGGGGCUGGGUAAUUCUUUCUUGUGGGGGCCGUUGGAAUUCUCGGGUGCCAA,0.433
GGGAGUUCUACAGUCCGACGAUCAGAGGGCAGUCAAGGUCAAGAGCCUGUGGUCCAGCAUGCCUGGCCUGGGCGGGCUACCUCUGAGAACGGCUGAAAUGGUGCCCAGUCCAUCAGCAGUGAUGGAAUUUGCUUGGAAUUCUCGGGUGCCAA,0.433
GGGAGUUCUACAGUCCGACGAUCUUGGGCAUUUUUAAGAGGUCUGAAUUUGUAUUUUUCUUCAUUUUUGAAACUUUACAUUUGUUGACUUUUUUUCAUUCUCAUUUAAAAUAUAUUGUGCUAUGAUAACCAACUGGAAUUCUCGGGUGCCAA,0.578
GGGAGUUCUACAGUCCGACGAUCCUUAGGUCUAGUCGCUAGAUCCCCCGUUUUCCCAAGAAGAGGGUUCGAGCCCUUGGUGGGGACAGCUGGGGAGAUGGCAGUGCAGGCUGGAACCUGGGCUGCCCCAGAACUGGAAUUCUCGGGUGCCAA,0.26
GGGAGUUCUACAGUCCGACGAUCCUGCCACAGACAUCCCACAAAGCCGCUGCCAUUUUAUUAAAGUGUUUUGAUCCACUUUGCACUGGAAUGAGAGGAUCUGUGUAAGGCACUUUCCAGGGAAGGCUGGGGACUGGAAUUCUCGGGUGCCAA,0.57
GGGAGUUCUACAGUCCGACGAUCUUUCUUUAUUAAAAUUACUUUUAUCUUAUAAAAUCAACUAAUCAAAAAUGAUAUAGACGACAGCACUGGCUCUGUGAAGGUGGCAUCUUUCUGGGCAGGCAGGCCAUGGGUGGAAUUCUCGGGUGCCAA,0.574
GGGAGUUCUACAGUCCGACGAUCUCUGGGGGUUCAGAUGGGUAGCACUAAGCCAGCUGGCCUAAAGAUGCAAUAAGUUCCUAGGUAGUCUACCCUUACCUUGAGGAAUGGGAAAAUGAACCUCAGCCCAUUAGUGGAAUUCUCGGGUGCCAA,0.421
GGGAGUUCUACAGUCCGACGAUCCUUGACCAGACCCCUUCUCCCUGACCUGGCUCUUCCAGCCAGGGCACGAGCCCUCCUUCUAUACCUGCUCCCCUUCCCCCAGUGGGGACUGAGUUAUGGGAGAAGGGGACUGGAAUUCUCGGGUGCCAA,0.381

# Set 2
# Target: Histone acetyltransferase KAT6A, both winged helices, GST fusion (KAT6A, Homo sapiens, UniProt Q92794, residues 1-181)
# Method: protein binding microarray
# Molecule type: double-stranded DNA, one strand shown
# Sample: in vitro
# Concentration: not given
# Setting: 8-mer, flanks averaged, mean of 2 arrays, mostly near background
# Relative to: not given
# Reading: higher = stronger binding
# Residues (chain): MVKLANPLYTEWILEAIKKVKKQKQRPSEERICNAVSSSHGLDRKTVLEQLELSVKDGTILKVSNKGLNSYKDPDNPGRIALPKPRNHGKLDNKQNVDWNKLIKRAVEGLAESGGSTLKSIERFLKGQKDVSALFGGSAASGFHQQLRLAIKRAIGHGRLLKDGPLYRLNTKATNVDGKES
Strand,E-score
GATGCCCA,-0.0695
AGTGCATA,-0.0164
ATTTCAAC,0.0126
AGGCGCCG,0.331
AACCAAGG,-0.0857
AGCAAACT,-0.0337
TACTCTGA,-0.0307
CCGCCCGA,0.232
CATACAGG,-0.211
AGCAGGAG,-0.111
TAGCTAAA,-0.039
AACTACTT,-0.12
AGCTAACA,-0.162
CCCATCCG,-0.0777
CCAAAAAG,-0.0729
AGGGGAGG,-0.235
GCTCCTTA,0.00718

# Set 3
# Target: Phosphate system positive regulatory protein PHO4, full length, GST-tagged (PHO4, Saccharomyces cerevisiae, UniProt P07270, residues 1-312)
# Method: competition protein-binding microarray
# Molecule type: double-stranded DNA, one strand shown
# Sample: in vitro
# Concentration: 2 µM
# Setting: whole 60-bp probe, lowest competitor level
# Together with: Cbf1 competitor, 0.05 µM
# Reading: higher = stronger binding
# Target sequence (chain): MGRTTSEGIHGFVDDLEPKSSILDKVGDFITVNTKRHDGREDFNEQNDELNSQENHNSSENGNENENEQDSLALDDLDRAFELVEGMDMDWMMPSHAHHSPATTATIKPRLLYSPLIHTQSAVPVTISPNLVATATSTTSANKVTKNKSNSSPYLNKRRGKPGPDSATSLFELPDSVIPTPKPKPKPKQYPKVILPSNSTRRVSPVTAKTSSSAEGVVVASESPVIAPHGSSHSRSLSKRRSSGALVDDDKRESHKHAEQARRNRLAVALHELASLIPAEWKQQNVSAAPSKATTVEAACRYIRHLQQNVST
Strand,fluorescence intensity [a.u.]
TGAATACGTCTCTTGCTCGTGTGTTTTGCCATTATGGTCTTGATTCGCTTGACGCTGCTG,7810
AAATTACTAAGTTGGAGCGTGGGTGACGCCGTATGAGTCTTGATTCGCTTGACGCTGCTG,8530
AAAAGAAACAAAGCAAGCGTGCCGAGACTTAGGGTTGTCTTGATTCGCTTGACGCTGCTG,7270
CTTTCCCGATCTTGTCACGGGACTTTAGCACATTTGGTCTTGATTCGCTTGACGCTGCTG,6530
CACAACAGTTCCAATCACGTGATGGTTACTGGACTTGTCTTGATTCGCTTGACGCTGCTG,15200
ATCATTTTTTACCATCACGCTTAACCTCGATATCTCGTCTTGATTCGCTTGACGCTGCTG,6260

# Other studies, line by line
Molecule,target,assay,test system,conditions,how to read,quantity,result
"PhoQ, residues 284 288 289 292 302 303 SSTLLI","PhoP, residues 12 14 15 18 19 IQFRS (Escherichia coli, UniProt P23836)","Sort-seq, refers to: YFP reporter",E. coli,"PhoQ-PhoP variant library, together with: 10 µM Mg2+","relative to: high Mg2+ state, higher = stronger signaling",fold induction,5.51

# Excerpt of the above (set 1):
Strand,RBNS enrichment (R)
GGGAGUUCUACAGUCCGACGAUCAGAGGGCAGUCAAGGUCAAGAGCCUGUGGUCCAGCAUGCCUGGCCUGGGCGGGCUACCUCUGAGAACGGCUGAAAUGGUGCCCAGUCCAUCAGCAGUGAUGGAAUUUGCUUGGAAUUCUCGGGUGCCAA,0.433
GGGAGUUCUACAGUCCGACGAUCAAAUAACUUGUAUAGAUUUUGGUUACCUACCCUUAAGUUCCCUCCCGUAGAUUAGCCUUUAGAAGUCAGUGUGGUGGCCGGCAGUGAAGUUUUCUUCACUAACAUUUAUUUGGAAUUCUCGGGUGCCAA,0.52
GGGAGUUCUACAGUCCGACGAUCCUGCCACAGACAUCCCACAAAGCCGCUGCCAUUUUAUUAAAGUGUUUUGAUCCACUUUGCACUGGAAUGAGAGGAUCUGUGUAAGGCACUUUCCAGGGAAGGCUGGGGACUGGAAUUCUCGGGUGCCAA,0.57
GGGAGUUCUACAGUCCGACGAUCUCGAAGUGCCCAGAUUUGACUCCUAAGUUCUAGGAGACUGUAGCGCAGGGUCUGUCAACCUUAGCACUAUUGGCAUUUGGGGCUGGGUAAUUCUUUCUUGUGGGGGCCGUUGGAAUUCUCGGGUGCCAA,0.433
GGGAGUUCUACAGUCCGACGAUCUCUGGGGGUUCAGAUGGGUAGCACUAAGCCAGCUGGCCUAAAGAUGCAAUAAGUUCCUAGGUAGUCUACCCUUACCUUGAGGAAUGGGAAAAUGAACCUCAGCCCAUUAGUGGAAUUCUCGGGUGCCAA,0.421
